{"data": "Measurements gathered from unrelated publications", "note": "“And” joins repeats or separate records; there may be more than shown. ± marks the error that the study gave."}
{"SMILES": "CCc1cnc(NC(=O)c2cc(S(=O)(=O)N3CCOCC3)ccc2N(C)C2CCCC2)s1", "species": "mice bearing HCC827-GR xenografts", "dose": "dose not given", "body weight": "not toxic"}
{"SMILES": "COc1cccc2c1C(=O)c1c(O)c3c(c(O)c1C2=O)C[C@@](O)(C(=O)CO)C[C@@H]3O[C@H]1C[C@H](N)[C@H](O)[C@H](C)O1", "species": "BALB/c mice, 4T1 tumour model", "dose": "2 mg/kg", "time": "day 11", "body weight": "19 ± 0.13 g"}
{"SMILES": "COc1cc(N2CCC(N3CCN(C)CC3)CC2)ccc1Nc1ncc(Cl)c(Nc2ccccc2P(C)(C)=O)n1", "species": "nude mice, NCI-H3122 xenograft", "route": "intraperitoneal", "dose": "10 mg/kg every other day", "time": "day 11", "body weight": "23.3 g and 23.4 g and 24.4 g and 21.6 g and 24.6 g"}
{"SMILES": "COc1ccc(CNc2nc(-c3ccc(C(=O)O)cc3)nc3c2c2ccccc2n3C)cc1Cl", "species": "NSG mice", "dose": "dose not given", "time": "day 4 of treatment", "body weight": "23.8 g and 21.4 g and 22.4 g and 23.3 g"}
{"SMILES": "C=CC(=O)N1C[C@@H](n2nc(C#Cc3c(F)cc4c(ncn4C4CC4)c3F)c(C(N)=O)c2NC)C[C@@H]1COC", "species": "mice, CC-LP-1 xenograft", "dose": "5 and 15 mg/kg", "time": "25 days", "body weight": "not toxic"}
{"SMILES": "C1=C/COCc2cc(ccc2OCCN2CCCC2)Nc2nccc(n2)-c2cccc(c2)COC/1", "species": "BALB/c mice, rhEPO-induced polycythemia", "dose": "120 mg/kg", "time": "day 5", "body weight": "20.3 g and 19.2 g and 18.7 g and 18 g and 18.8 g and 17.9 g"}
{"SMILES": "O=C1NC(=O)/C(=C/c2ccc3ncnc(N4CCCCC4)c3n2)S1", "species": "NSG mice", "dose": "dose not given", "time": "day 2", "body weight": "17.5 g and 23.4 g and 25 g and 19.6 g"}
{"SMILES": "Cc1cnc(Nc2ccc(OCCN3CCCC3)cc2)nc1Nc1cccc(S(=O)(=O)NC(C)(C)C)c1", "species": "BALB/c mice, rhEPO-induced polycythemia", "dose": "120 mg/kg", "time": "day 2", "body weight": "19.2 g and 19 g and 18.4 g and 17.9 g and 18.7 g"}
{"SMILES": "CCc1nn(C)c2nc(-c3ccc(C(=O)O)cc3)nc(NCc3ccc(F)cc3)c12", "species": "NSG mice", "dose": "dose not given", "time": "day 3 of treatment", "body weight": "21.4 g and 20.3 g and 22.1 g and 19.8 g"}
{"SMILES": "O=C(Nc1cccc2cccnc12)c1cnccn1", "species": "NOD/SCID mice MIA PaCa-2 xenograft", "route": "intraperitoneal", "dose": "10 to 40 mg/kg", "body weight": "no effect"}
{"note": "A few entries again:"}
{"SMILES": "C1=C/COCc2cc(ccc2OCCN2CCCC2)Nc2nccc(n2)-c2cccc(c2)COC/1", "species": "BALB/c mice, rhEPO-induced polycythemia", "dose": "120 mg/kg", "time": "day 5", "body weight": "20.3 g and 19.2 g and 18.7 g and 18 g and 18.8 g and 17.9 g"}
